Measured values pooled from the literature.
Lines come from different studies, so protocols differ. “And” joins repeats or separate records; there may be more than shown. ± gives the spread as reported.
Gria1: Glutamate receptor 1 (Gria1, Rattus norvegicus, UniProt P19490)
TDP1: Tyrosyl-DNA phosphodiesterase 1 (TDP1, Homo sapiens, UniProt Q9NUW8)
CASP6: Caspase-6 (CASP6, Homo sapiens, UniProt P55212)

SMILES | target | assay | system | conditions | how to read | quantity | value
CC[C@@H](C)[C@H](NC(=O)[C@H](Cc1ccc(O)cc1)NC(=O)[C@@H]1C[C@@H](O)CN1C(=O)[C@H](C)NC(=O)[C@H](CC(C)C)NC(=O)[C@H](C)NC(=O)[C@H](CCC(=O)O)NC(=O)[C@H](CC(=O)O)NC(=O)c1ccc2c(c1)C1(OC2=O)c2ccc(O)cc2Oc2cc(O)ccc21)C(=O)N1CCC[C@H]1C(=O)N[C@@H](CC(=O)O)C(=O)O | elongin C (Spodoptera frugiperda, UniProt A0A2H1WSX9) | surface plasmon resonance |  | binary complex |  | kon | 58000 M⁻¹ s⁻¹
O=C(O)Cc1cc2c(cc1C(=O)c1cccc(I)c1)OCO2 | Gria1 | whole-cell patch clamp | HEK-293T | concentration not given, with: glutamate |  | desensitization time constant | 1.4 ± 0.1 ms
O=C(O)c1ccc(Nc2c(-c3ccc(CON=Cc4cccn4Cc4cnc(Cl)s4)cc3)nc3cc(-c4ccccc4)ccn23)cc1 (mixture of isomers) | TDP1 | enzyme activity, inhibitor |  | 100 µM, unpurified compound |  | inhibition | 39.1%
C/C(=C/CC[C@@H](C)[C@H]1CC[C@@]2(C)C3=CC[C@H]4C(C)(C)C(=O)CC[C@]4(C)C3=C[C@@H](O[C@@H]3O[C@H](CO)[C@@H](O)[C@H](O)[C@H]3O)[C@]12C)C(=O)O | Taste receptor type 2 member 46 (TAS2R46, Homo sapiens, UniProt P59540) | agonist, calcium mobilisation FLIPR | HEK cells with Gα16gust44 | pH 7.4, lowest significant vs empty vector |  | threshold concentration | 3 µM
CC(=O)N[C@@H](Cc1ccc(O)cc1)C(=O)N[C@@H](CCCCN)C(=O)N[C@@H](C)C(=O)N[C@@H](CC(=O)O)C(=O)COC(=O)c1c(C)cccc1C | CASP6 | enzyme activity, inhibitor |  |  |  | kinact/KI | 200 M⁻¹ s⁻¹
O=C(O)c1ccc(Nc2c(-c3ccc(CON=Cc4ccc5[nH]ccc5c4)cc3)nc3cc(-c4ccccc4)ccn23)cc1 (mixture of isomers) | TDP1 | enzyme activity, inhibitor |  | 100 µM, unpurified compound |  | inhibition | 42.5%
O=C(O)Cc1cc2c(cc1C(=O)c1ccccc1I)OCO2 | Gria1 | glutamate-evoked current, whole-cell patch clamp | HEK-293T | concentration not given | relative to: glutamate alone | current amplitude ratio | 2.36 ± 0.1
O=C(O)c1ccc(Nc2c(-c3ccccc3)nc3ccc(CON=Cc4c(N5CCCC5)nc5ccccn45)cn23)cc1 | TDP1 | enzyme activity, inhibitor |  | 100 µM, unpurified compound |  | inhibition | -2.8%
CC(=O)N[C@H](C(=O)N[C@@H](CCO)C(=O)N[C@H](C(=O)N[C@@H](CC(=O)O)C(=O)COC(=O)c1c(C)cccc1C)C(C)C)C(C)C | CASP6 | enzyme activity, inhibitor |  |  |  | kinact/KI | 19700 M⁻¹ s⁻¹
CCCCOc1ccc(C(=O)OCC[N+]2(C)CC=CCC2)cc1 (stereo not drawn) | Muscarinic acetylcholine receptor M5 (CHRM5, Homo sapiens, UniProt P08912) |  | membranes | 100 µM, 15 h, no carbachol | relative to: control | basal binding | 1 ± 0.03 fold
Cn1ccc2ccc(C=NOCc3ccc(-c4nc5cc(-c6ccccc6)ccn5c4Nc4ccc(C(=O)O)cc4)cc3)cc21 (mixture of isomers) | TDP1 | enzyme activity, inhibitor |  | 100 µM, unpurified compound |  | inhibition | 54.7%
O=S(=O)(c1ccc(Cl)cc1)N1CCC1c1ccccc1 (stereo not drawn) | Rhomboid protease GlpG (glpG, Escherichia coli, UniProt P09391) | enzyme activity, inhibitor, gel-based chimeric protein substrate |  |  |  | IC50 | inactive
CCCCCC(O)/C=C/C=O (stereo not drawn) | Mini-chromosome maintenance complex-binding protein (Homo sapiens, UniProt Q9BTE3) | competitive isoTOP-ABPP, item: C10orf119 cysteine peptide | Ramos soluble proteome | 100 µM, with: iodoacetamide probe | relative to: DMSO over compound-treated, higher = stronger cysteine blockade | isoTOP-ABPP competition ratio | 1.7
CCO | Lysozyme C (LYZ, Gallus gallus, UniProt P00698) | binding, static light scattering |  | pH 7, 25 °C, with: NaCl 50 mM |  | association constant | 2.1 M⁻¹
CCCCCC=CC=C1C(=O)C=CC1CC=CCCCC(=O)O (stereo not drawn) | Perilipin-3 (PLIN3, Homo sapiens, UniProt O60664) | competitive isoTOP-ABPP | proteome, soluble, MDA-MB-231 | 100 µM, 60 min, with: iodoacetamide probe | relative to: DMSO over compound-treated, higher = stronger cysteine blockade | isoTOP-ABPP competition ratio | 4.9
CCN1CCN(Cc2ccc(C(=O)Nc3ccc(C)c(NCc4cnc5[nH]ccc5c4OC)c3)cc2C(F)(F)F)CC1 | Tyrosine-protein kinase ABL1, phosphorylated (ABL1, Homo sapiens, UniProt P00519, E255K) | binding, competition with immobilised ligand |  | 1 µM |  | remaining binding | 1.3%
O=C1c2sc(-c3ccc(N4CCC(CO)CC4)nc3F)nc2CCN1c1cccnc1 | TAR DNA-binding protein 43, aggregated (TARDBP, Homo sapiens, UniProt Q13148) | radioligand binding | control brain sarkosyl-insoluble extract | 52.06 nM |  | specific binding | -0.025 nM
COC(=O)c1ccc(C=NOCc2ccc3nc(-c4ccccc4)c(Nc4ccc(C(=O)O)cc4)n3c2)nc1 (mixture of isomers) | TDP1 | enzyme activity, inhibitor |  | 100 µM, unpurified compound |  | inhibition | 21.8%

SMILES | target | assay | system | conditions | how to read | quantity | value
CC(C)[C@@H]1NC(=O)[C@H](Cc2ccccc2)NC(=O)CSC[C@@H](C(N)=O)NC(=O)[C@H](CCC(=O)O)NC(=O)[C@H](CO)NC(=O)[C@H](Cc2c[nH]c3cccc(Cl)c23)NC(=O)[C@H](C2CCCCC2)NC(=O)[C@H](C(C)C)NC(=O)[C@H](Cc2ccc(O)cc2)NC(=O)[C@H](CC(=O)O)NC(=O)[C@H](Cc2c[nH]c3ccccc23)NC(=O)[C@H](Cc2ccc(N)nc2)NC(=O)[C@H](Cc2c[nH]c3ccc(Cl)cc23)NC(=O)[C@H](CCC(=O)O)NC1=O | Interleukin-1 receptor-like 2 (IL1RL2, Homo sapiens, UniProt Q9HB29) | IL-8 release, antagonist | A-431 | 0.6 µM, 18 h, with: IL-36γ | relative to: untreated | remaining activity | 95.9%
O=C(O)c1ccc(Nc2c(-c3ccccc3)nc3ccc(CON=Cc4ccc(OCc5ccc6nsnc6c5)cc4)cn23)cc1 | TDP1 | enzyme activity, inhibitor |  | 100 µM, unpurified compound |  | inhibition | 98.2%
COC(=O)[C@@]1(C)C=C(C(=O)Nc2cccc(C(=O)Nc3ccc(Nc4nccc(-c5cccnc5)n4)c(C)c3)c2)C(=O)CC1 | Mitogen-activated protein kinase 8, docking groove (MAPK8, Homo sapiens, UniProt P45983) | peptide binding, inhibitor, fluorescence polarization |  | 6.25 µM, with: JIP1 peptide probe |  | normalized fluorescence polarization | 0.876
O=C(NC[C@@H](Cc1ccc(F)cc1)N1CCC(O)(C(F)(F)F)CC1)C1(c2ccc(Cl)cc2)CCCC1 | Transient receptor potential cation channel subfamily A member 1 (TRPA1, Homo sapiens, UniProt O75762, F938A) | calcium influx, agonist |  |  | relative to: F938A mutant over wild type | EC50 fold change | 2.7
O=C(O)Cc1cc2c(cc1C(=O)c1cccc(Br)c1)OCO2 | Gria1 | whole-cell patch clamp | HEK-293T | concentration not given, with: glutamate |  | deactivation time constant | 6.3 ± 0.3 ms
COc1ccc(OC)c(C2=Nn3c(nnc3-c3ccc(Cl)cc3)SC2)c1 | Uncharacterized protein (Trypanosoma brucei brucei, UniProt Q386Q8) | inhibitor, coupled colorimetric | Trypanosoma brucei |  |  | Hill slope | 0.22
CC(=O)N(c1ccccc1)c1nc(C=NOCc2ccc3nc(-c4ccccc4)c(Nc4ccc(C(=O)O)cc4)n3c2)cs1 (mixture of isomers) | TDP1 | enzyme activity, inhibitor |  | 100 µM, unpurified compound |  | inhibition | -17.8%
CCCCCCCC/C=C\CCCCCCCC(=O)NCCO | Transient receptor potential cation channel subfamily V member 1 (Trpv1, Mus musculus, UniProt Q704Y3, S511A) | ion current, agonist, whole-cell patch clamp |  | S511A | relative to: 3 mM 2-APB | maximal open probability | 0.74 ± 0.13
C=CC(=O)N1CCCC(n2c(=O)c3ncccc3n(Cc3ccc(Oc4ccccc4)cc3)c2=O)C1 (stereo not drawn) | Crk-like protein (Homo sapiens, UniProt P46109) | thermal proteome profiling |  | unit not given | relative to: untreated control | melting temperature shift | -2.26
C#CCOC(=O)[C@]1(C)C=C(C(=O)OC(C)(C)C)C(=O)CC1 | Mitogen-activated protein kinase 1 (MAPK1, Homo sapiens, UniProt P28482) | enzyme activity, D-SENSOR |  | 0.06097 µM, single replicate |  | normalized kinase activity | 0.849 and 0.866 and 1.03
CC(C)NCCCn1c(Sc2cc3c(cc2I)OCO3)nc2c(N)ncnc21 | HSP90AA1/HSP90B1 (Homo sapiens, UniProt P07900+P41148, E62I/S52A/Y61L) | ITC |  | concentration not given |  | binding stoichiometry | 0.95 ± 0.1
NC(=O)c1cccc(CN(C(=O)NC(CN2CCCCC2)c2ccccc2)C(CN2CCCCC2)c2ccccc2)c1 (stereo not drawn) | Kappa-type opioid receptor (OPRK1, Homo sapiens, UniProt P41145) | beta-arrestin recruitment |  |  |  | bias factor | 0.75
O=C(O)c1ccc(Nc2c(-c3ccccc3)nc3ccc(CON=Cc4cc5ccccc5c5ccccc45)cn23)cc1 (mixture of isomers) | TDP1 | enzyme activity, inhibitor |  | 100 µM, unpurified compound |  | inhibition | 38.4%
CC(=O)N[C@@H](CCC(C)C)C(=O)N[C@@H](CCC(=O)O)C(=O)N[C@@H](C)C(=O)N[C@@H](CC(=O)O)C(=O)COC(=O)c1c(C)cccc1C | CASP6 | enzyme activity, inhibitor |  |  |  | kinact/KI | 13500 M⁻¹ s⁻¹
Nc1ncnc2c1ncn2C1OC(CN(CCCC2CNCc3c2ccc(Cl)c3Cl)CCC(N)C(=O)O)C(O)C1O (mixture of isomers) | Phenylethanolamine N-methyltransferase (PNMT, Homo sapiens, UniProt P11086) | isothermal titration calorimetry |  | concentration not given, second site, without SAH |  | binding enthalpy ΔH | 11.4 ± 0.1 kcal/mol
Cc1cnc2nc1Nc1cccc(c1)COC/C=C/COCc1cc(ccc1OCCN1CCOCC1)N2 | Epidermal growth factor receptor (EGFR, Homo sapiens, UniProt P00533, del752-759) | binding |  | 0.1 µM |  | remaining binding | 97%
Cc1cc(=O)oc2cc(NC(=O)CCCCCCCC(=O)NO)ccc12 | Histone deacetylase 8 (HDAC8, Homo sapiens, UniProt Q9BY41) | ITC | triethanolamine buffer | concentration not given, pH 7.5 |  | binding stoichiometry | 0.81
CC(C)Oc1cc(Cl)ccc1CNc1cc(-c2ccccc2)nc2ncnn12 | G-protein coupled receptor 3 (GPR3, Homo sapiens, UniProt P46089, Q211A) | cAMP level, cAMP GloSensor |  | 100 pM | higher = more cAMP | cAMP luminescence | 45300 a.u. and 41400 a.u. and 32800 a.u. and 33200 a.u.

A few entries again:
SMILES | target | assay | system | conditions | how to read | quantity | value
O=C(O)c1ccc(Nc2c(-c3ccc(CON=Cc4cccn4Cc4cnc(Cl)s4)cc3)nc3cc(-c4ccccc4)ccn23)cc1 (mixture of isomers) | TDP1 | enzyme activity, inhibitor |  | 100 µM, unpurified compound |  | inhibition | 39.1%
C/C(=C/CC[C@@H](C)[C@H]1CC[C@@]2(C)C3=CC[C@H]4C(C)(C)C(=O)CC[C@]4(C)C3=C[C@@H](O[C@@H]3O[C@H](CO)[C@@H](O)[C@H](O)[C@H]3O)[C@]12C)C(=O)O | Taste receptor type 2 member 46 (TAS2R46, Homo sapiens, UniProt P59540) | agonist, calcium mobilisation FLIPR | HEK cells with Gα16gust44 | pH 7.4, lowest significant vs empty vector |  | threshold concentration | 3 µM
CC(=O)N[C@@H](Cc1ccc(O)cc1)C(=O)N[C@@H](CCCCN)C(=O)N[C@@H](C)C(=O)N[C@@H](CC(=O)O)C(=O)COC(=O)c1c(C)cccc1C | CASP6 | enzyme activity, inhibitor |  |  |  | kinact/KI | 200 M⁻¹ s⁻¹
